Published values pooled from the literature.
Lines come from different studies, so protocols differ. Several values in a cell are separate wells, animals, samples, runs or records. ± gives the spread as reported.

Compound	target	test	test system	conditions	how to read	quantity	value
NC(=O)c1ccc2nccc(NCCc3ccccc3)c2c1	CDK8/CDK19	NF-κB reporter gene	293-NFκB-Luc	3 h, with: TNF-α 10 ng/mL		IC50	> 5 µM
NCCCOc1cc(NC(=O)c2cccc(C(=O)Nc3cc(OCCCN)c4ccccc4n3)n2)nc2ccccc12	c-myc G-quadruplex DNA	FRET melting		1 µM, pH 7.4, with: 60 mM potassium		ΔTm	16.3 ± 0.8 K
Oc1ccccc1-c1n[nH]cc1-c1ccnc2ccccc12	MPS1 (Candida albicans)	kinase binding, MIB/MS competition	Candida albicans lysate	10 µM	reference: DMSO	log2 fold change	0.79
Brc1ccc2nccc(NCCc3ccccc3)c2c1	CDK8/CDK19	NF-κB reporter gene	293-NFκB-Luc	3 h, with: TNF-α 10 ng/mL		IC50	> 5 µM
C#CCOc1cc(C(=O)Nc2cc(OCCN)c3ccccc3n2)nc(C(=O)Nc2cc(OCCN)c3ccccc3n2)c1	c-myc G-quadruplex DNA	FRET melting		1 µM, pH 7.4, with: 60 mM potassium		ΔTm	7.4 ± 0.6 K
CCN(CC)c1ccc(/C=N/c2ccc(F)cc2)c(O)c1	yeast alpha-glucosidase	enzyme activity		with: pNPG		IC50	291 µM
c1coc(-c2n[nH]cc2-c2ccnc3ccccc23)c1	KIN3 (Candida albicans)	kinase binding, MIB/MS competition	Candida albicans lysate	10 µM	reference: DMSO	log2 fold change	-0.11
[Cl-].[Cl-].[Pt+2].[Ru+2].c1ccc(-c2nc3cc4ccccc4cc3nc2-c2ccccn2)nc1.c1cnc2c(c1)ccc1cccnc12.c1cnc2c(c1)ccc1cccnc12	pcDNA supercoiled plasmid	agarose gel electrophoresis		100 µM, photoinduced cleavage, with: 0.1 µM pcDNA		nicked circular DNA	15.6%
CC[S+]([O-])c1nc(-c2ccccc2)cc(C(F)(F)F)n1 (stereo not shown)	importin beta-1	SREBP1 nuclear import, high content imaging	HeLa Kyoto	0.05 µM, 3 h, with: glucose and MG132		cells with nuclear SREBP1	86.6% and 87.2% and 84.7% and 86.8%
COc1cc(NC(C)=O)c(Cl)cc1C(=O)Nc1nccs1	SKCa channel			10 µM		inhibition	-3.7%
Cc1ncsc1-c1ccc([C@H](C)NC(=O)[C@@H]2C[C@@H](O)CN2C(=O)[C@@H](NC(=O)CCCCCCCCCCNC[C@@H](C(=O)N2CCN(c3ncnc4c3[C@H](C)C[C@H]4O)CC2)c2ccc(Cl)cc2)C(C)(C)C)cc1	Akt	inhibitor	mouse BT-474 xenograft	intraperitoneal, 30 mg/kg		sustained response duration	≥ 48 h
CC(Nc1nc(N2CCCC2)nc2ccccc12)c1ccccc1 (stereo not shown)	importin beta-1	SREBP1 nuclear import, high content imaging	HeLa Kyoto	0.02 µM, 3 h, with: glucose and MG132		cells with nuclear SREBP1	88.2% and 88.6% and 90% and 84.1%
[Cl-].[Cl-].[Pt+2].[Ru+2].c1ccc(-c2nccnc2-c2ccccn2)nc1.c1cnc2c(c1)ccc1cccnc12.c1cnc2c(c1)ccc1cccnc12	pcDNA supercoiled plasmid	agarose gel electrophoresis		20 µM, photoinduced cleavage, with: 0.1 µM pcDNA		nicked circular DNA	22.6%
O=C(Nc1cc(OCCN2CCCC2)c2ccccc2n1)c1cc(OCc2ccc(F)cc2)cc(C(=O)Nc2cc(OCCN3CCCC3)c3ccccc3n2)n1	c-myc G-quadruplex DNA	FRET melting		1 µM, pH 7.4, with: 60 mM potassium		ΔTm	5.3 ± 0.5 K
[Cl-].[Cl-].[Pt+2].[Ru+2].c1ccc(-c2nc3ccccc3nc2-c2ccccn2)nc1.c1cnc2c(c1)ccc1cccnc12.c1cnc2c(c1)ccc1cccnc12	pcDNA supercoiled plasmid	agarose gel electrophoresis		20 µM, photoinduced cleavage, with: 0.1 µM pcDNA		nicked circular DNA	11.7%
CCS(=O)(=O)c1nc(C2CC2)cc(C(F)(F)F)n1	importin beta-1	SREBP1 nuclear import, high content imaging	HeLa Kyoto	5.01 µM, 3 h, with: glucose and MG132		cells with nuclear SREBP1	90.3% and 89.3% and 87% and 91.2%

A few entries again:
Compound	target	test	test system	conditions	how to read	quantity	value
CCS(=O)(=O)c1nc(C2CC2)cc(C(F)(F)F)n1	importin beta-1	SREBP1 nuclear import, high content imaging	HeLa Kyoto	5.01 µM, 3 h, with: glucose and MG132		cells with nuclear SREBP1	90.3% and 89.3% and 87% and 91.2%
[Cl-].[Cl-].[Pt+2].[Ru+2].c1ccc(-c2nccnc2-c2ccccn2)nc1.c1cnc2c(c1)ccc1cccnc12.c1cnc2c(c1)ccc1cccnc12	pcDNA supercoiled plasmid	agarose gel electrophoresis		20 µM, photoinduced cleavage, with: 0.1 µM pcDNA		nicked circular DNA	22.6%
